# Experimental data gathered from unrelated publications.
# Numbered parts are unrelated; each lists some results of a single study. Positions count from the first letter of the parent shown.
# Chain of UniProt Q9Y2U5 (whole entry, looked up): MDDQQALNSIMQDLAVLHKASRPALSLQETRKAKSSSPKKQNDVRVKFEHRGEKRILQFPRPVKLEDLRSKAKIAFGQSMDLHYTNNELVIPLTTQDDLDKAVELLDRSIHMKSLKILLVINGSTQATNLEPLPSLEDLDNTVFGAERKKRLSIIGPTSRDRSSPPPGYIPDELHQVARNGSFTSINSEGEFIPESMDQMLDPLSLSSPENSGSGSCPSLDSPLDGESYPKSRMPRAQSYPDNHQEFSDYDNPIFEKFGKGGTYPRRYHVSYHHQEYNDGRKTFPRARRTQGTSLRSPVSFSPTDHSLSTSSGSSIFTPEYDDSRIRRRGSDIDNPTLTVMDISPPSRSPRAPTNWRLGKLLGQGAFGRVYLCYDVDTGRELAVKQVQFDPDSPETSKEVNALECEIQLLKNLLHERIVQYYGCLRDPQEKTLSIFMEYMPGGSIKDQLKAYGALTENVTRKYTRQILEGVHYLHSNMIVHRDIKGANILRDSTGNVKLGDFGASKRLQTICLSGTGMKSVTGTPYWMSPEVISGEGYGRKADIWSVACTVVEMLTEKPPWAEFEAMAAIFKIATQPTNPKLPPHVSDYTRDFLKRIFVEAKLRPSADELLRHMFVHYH
# Chain of UniProt P41279 (whole entry, looked up): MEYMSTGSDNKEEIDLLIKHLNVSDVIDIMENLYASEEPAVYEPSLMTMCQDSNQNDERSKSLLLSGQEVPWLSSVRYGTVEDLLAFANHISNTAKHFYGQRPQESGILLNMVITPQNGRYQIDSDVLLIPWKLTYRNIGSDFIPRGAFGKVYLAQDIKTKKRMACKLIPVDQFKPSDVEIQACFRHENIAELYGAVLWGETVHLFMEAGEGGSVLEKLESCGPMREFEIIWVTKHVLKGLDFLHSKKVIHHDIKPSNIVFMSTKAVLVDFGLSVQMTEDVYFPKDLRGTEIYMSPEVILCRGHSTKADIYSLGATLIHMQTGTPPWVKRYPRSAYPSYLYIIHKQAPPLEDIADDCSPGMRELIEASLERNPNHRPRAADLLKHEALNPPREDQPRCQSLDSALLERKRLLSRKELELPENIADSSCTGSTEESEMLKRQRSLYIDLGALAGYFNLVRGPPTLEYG
# Chain of UniProt Q8IU85 (whole entry, looked up): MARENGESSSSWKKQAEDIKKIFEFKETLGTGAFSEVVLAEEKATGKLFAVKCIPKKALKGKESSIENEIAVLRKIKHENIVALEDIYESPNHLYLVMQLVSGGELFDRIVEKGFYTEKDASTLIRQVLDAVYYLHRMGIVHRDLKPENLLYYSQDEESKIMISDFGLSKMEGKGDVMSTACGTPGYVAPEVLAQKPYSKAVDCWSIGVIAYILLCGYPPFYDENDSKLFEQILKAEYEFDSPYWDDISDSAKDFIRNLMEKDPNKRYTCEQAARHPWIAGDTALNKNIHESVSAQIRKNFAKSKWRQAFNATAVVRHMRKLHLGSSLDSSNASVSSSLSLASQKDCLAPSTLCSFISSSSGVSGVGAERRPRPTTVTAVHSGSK
# Chain of UniProt Q16288 (whole entry, looked up): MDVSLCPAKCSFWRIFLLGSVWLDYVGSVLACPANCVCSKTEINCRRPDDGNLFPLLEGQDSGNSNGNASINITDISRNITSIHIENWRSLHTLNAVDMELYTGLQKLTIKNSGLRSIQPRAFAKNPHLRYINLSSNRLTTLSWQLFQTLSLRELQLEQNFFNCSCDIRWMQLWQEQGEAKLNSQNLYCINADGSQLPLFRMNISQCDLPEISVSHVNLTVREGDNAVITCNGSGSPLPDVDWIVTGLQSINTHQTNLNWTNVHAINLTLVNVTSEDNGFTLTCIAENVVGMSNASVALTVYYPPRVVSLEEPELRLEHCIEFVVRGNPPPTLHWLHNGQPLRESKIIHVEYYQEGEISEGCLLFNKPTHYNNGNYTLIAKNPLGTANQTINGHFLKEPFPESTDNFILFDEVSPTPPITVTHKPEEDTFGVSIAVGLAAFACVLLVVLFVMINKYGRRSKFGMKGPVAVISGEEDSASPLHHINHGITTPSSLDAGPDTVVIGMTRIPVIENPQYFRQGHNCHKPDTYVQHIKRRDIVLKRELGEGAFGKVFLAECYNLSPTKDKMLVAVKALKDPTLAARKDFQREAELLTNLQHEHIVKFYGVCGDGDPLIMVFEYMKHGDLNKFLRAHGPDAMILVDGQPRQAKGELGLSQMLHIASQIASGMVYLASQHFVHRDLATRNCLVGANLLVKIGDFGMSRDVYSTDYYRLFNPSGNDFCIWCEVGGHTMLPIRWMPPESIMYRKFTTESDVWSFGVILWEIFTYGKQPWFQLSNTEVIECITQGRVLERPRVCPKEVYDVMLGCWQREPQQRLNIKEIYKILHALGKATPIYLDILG
# Chain of UniProt Q09013 (whole entry, looked up): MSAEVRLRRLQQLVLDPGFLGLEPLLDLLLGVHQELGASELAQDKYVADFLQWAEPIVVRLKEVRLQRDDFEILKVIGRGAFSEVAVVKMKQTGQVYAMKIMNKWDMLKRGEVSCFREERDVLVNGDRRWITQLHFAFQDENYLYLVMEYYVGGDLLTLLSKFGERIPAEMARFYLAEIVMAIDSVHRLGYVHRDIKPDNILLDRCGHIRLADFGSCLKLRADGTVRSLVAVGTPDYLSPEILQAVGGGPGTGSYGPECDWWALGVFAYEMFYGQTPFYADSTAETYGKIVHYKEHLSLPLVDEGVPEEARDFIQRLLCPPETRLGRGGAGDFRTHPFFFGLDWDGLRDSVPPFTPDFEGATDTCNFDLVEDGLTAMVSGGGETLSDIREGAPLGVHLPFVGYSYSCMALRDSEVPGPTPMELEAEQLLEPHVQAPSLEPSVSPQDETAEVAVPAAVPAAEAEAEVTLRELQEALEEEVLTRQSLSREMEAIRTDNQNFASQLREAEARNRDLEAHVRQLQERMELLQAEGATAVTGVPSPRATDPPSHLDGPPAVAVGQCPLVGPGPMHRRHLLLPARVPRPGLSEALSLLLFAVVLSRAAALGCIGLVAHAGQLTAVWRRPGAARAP

# Sample 1
# Target: Kappa-type opioid receptor (OPRK1, Homo sapiens, UniProt P41145)
# Chain of UniProt P41145 (whole entry, looked up): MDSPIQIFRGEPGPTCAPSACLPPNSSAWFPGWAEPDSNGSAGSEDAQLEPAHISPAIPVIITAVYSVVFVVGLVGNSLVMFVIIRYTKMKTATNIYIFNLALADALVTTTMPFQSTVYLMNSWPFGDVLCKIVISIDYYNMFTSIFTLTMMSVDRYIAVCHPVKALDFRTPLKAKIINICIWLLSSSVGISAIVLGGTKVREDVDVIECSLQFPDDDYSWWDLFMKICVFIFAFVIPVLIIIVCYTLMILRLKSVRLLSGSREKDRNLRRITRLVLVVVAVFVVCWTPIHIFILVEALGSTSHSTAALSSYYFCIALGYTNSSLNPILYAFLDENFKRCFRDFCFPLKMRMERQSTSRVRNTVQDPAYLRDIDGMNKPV
# Observed: ligand displacement
# Tested at: 10 µM
SMILES,inhibition [%]
CCC(F)(F)c1cc(N2CCC(S(C)(=O)=O)CC2)nc2sc(C(N)=O)c(N)c12,8.09
CCC(=NO)C(C)=Cc1ccc(F)c(C)c1,8.6
Cc1c(NC(=O)c2cc(C(N)=O)nc3cc(F)ccc23)c(C(F)(F)F)nn1Cc1ccc(C#N)cc1,-6.9
CS(=O)(=O)N1CCCC(NC(=O)[C@H](CCC2CCCCC2)NC(=O)c2ccc(CNC(=O)c3cnc4ccccn34)cc2)C1 (some centres unmarked),20.1
CN1CCN(c2cnc3c(C4CCN(C(=O)c5ccc(OC(F)(F)F)cc5N)CC4)ncnc3c2)CC1,9.37
CC1CCN(c2ccnc(NCc3cn(C)cn3)n2)CC1,36.6
CNC(=N)NCCC[C@H](NC(=O)[C@H](CC(C)C)NC(=O)NNC(=O)[C@H](Cc1ccccc1)NC(=O)[C@H](CO)NC(=O)[C@H](CC(N)=O)NC(=O)[C@@H](Cc1ccncc1)NC(=O)[C@H](N)Cc1ccc(O)cc1)C(=O)N[C@@H](Cc1ccccc1)C(N)=O,-6.31
COc1cc(N[C@@H]2CCCC[C@]2(O)C(F)(F)F)ccc1F,10.5
C[C@@H](c1cccc(C#N)c1)n1cc(Cl)cc(C(N)=O)c1=N,1.2
COc1cccc(NC(=O)c2nc3scc(CN(C)Cc4ccccc4)c3c(=O)[nH]2)c1,14.2
COc1cc(-c2cn(C3CCc4c(F)cccc4N(CC(F)(F)F)C3=O)nn2)ccc1-n1cnc(C)c1 (centres unmarked),7.19
Cn1nc(C(=O)NCc2ccc(C(=O)O)cc2)cc1-c1ccc2[nH]ccc2c1,16.8
CN(C)c1ncnc(-c2ccc3nc(Nc4cc(CN5CCN(C(=O)CC(F)(F)F)CC5)ccn4)[nH]c3c2)c1Cl,33.7

# Sample 2
# Target: CCND1, cyclin fold, Cln2 fusion (human)
# Method: yeast growth competition, sequencing
# Matrix: yeast
# Notes: weak parent motif
# Reference: not given
# Reading: higher = stronger binding
# Starting sequence: viral docking peptide; TSVRRALFTGGSD; partner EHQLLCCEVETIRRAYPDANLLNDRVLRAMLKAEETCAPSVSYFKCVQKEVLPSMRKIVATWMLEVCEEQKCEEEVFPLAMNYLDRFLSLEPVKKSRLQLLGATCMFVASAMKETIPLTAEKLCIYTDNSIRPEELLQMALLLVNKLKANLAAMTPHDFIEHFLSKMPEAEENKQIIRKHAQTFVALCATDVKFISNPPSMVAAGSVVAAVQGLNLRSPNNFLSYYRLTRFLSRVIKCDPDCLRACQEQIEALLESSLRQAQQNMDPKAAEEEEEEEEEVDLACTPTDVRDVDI
Change,normalised enrichment score
F8K,-0.128
R5A L7A,-0.00818
G10Q,0.375
R4K,0.421
V3S,-0.0772
L7I,0.14
G11L,0.271
L7P,-0.0284

# Sample 3
# Structure (SMILES): N/C(=N\[N+](=O)[O-])N/N=C\c1ccc(-c2cccc([N+](=O)[O-])c2)o1
# Observed: enzyme activity
# Action: inhibitor
# Tested at: 0.5 µM
# Reference: control
target,remaining activity
"DMPK (Homo sapiens, UniProt Q09013)",102%
"MAP3K8 (Homo sapiens, UniProt P41279)",98.8%
"Cyclin-dependent kinase 2, with cyclin A (CDK2, Homo sapiens, UniProt P24941)",106%
"MAP3K2 (Homo sapiens, UniProt Q9Y2U5)",97%
"NTRK3 (Homo sapiens, UniProt Q16288)",104%
"CAMK1D (Homo sapiens, UniProt Q8IU85)",96.4%

# Sample 4
# Cell line: HEK-293T/ACE2
# Tested at: concentration not given
# Time: 16 (unit not given)
# Reference: vehicle
SMILES,viability [%]
CC(C)(C)NC[C@H](O)COc1nsnc1N1CCOCC1,101
CCC(=O)O[C@]1(C(=O)SCF)[C@H](C)C[C@H]2[C@@H]3C[C@H](F)C4=CC(=O)C=C[C@]4(C)[C@@]3(F)[C@@H](O)C[C@@]21C,105
CCCCC(=O)O[C@H]1CC[C@H]2[C@@H]3CCc4cc(O)ccc4[C@H]3CC[C@]12C,103
Nc1nc(F)nc2c1ncn2[C@@H]1O[C@H](COP(=O)(O)O)[C@@H](O)[C@@H]1O,100
c1ccc2c(CC3=NCCN3)cccc2c1,98

# Some of these lines once more (sample 1):
SMILES,inhibition [%]
CCC(F)(F)c1cc(N2CCC(S(C)(=O)=O)CC2)nc2sc(C(N)=O)c(N)c12,8.09
CCC(=NO)C(C)=Cc1ccc(F)c(C)c1,8.6
